Measured values from different studies.
Compare with care: the assays were run in different laboratories. Values joined by “and” are separate records of one study, mostly repeats; a detail may differ. Numbers after ± are the reported error. ≈ marks a conversion by molar mass, not a printed value.

Compound	assay	system	conditions	measurement	result
CN[C@@](C)(C[18F])C(=O)O		SCID mouse U87 xenograft, heart	30 min, post injection	tissue uptake	4.5 ± 1.7 %ID/g
CCCCCOc1ccc(-c2cc(-c3ccc(C(=O)N[C@H]4C[C@@H](O)[C@@H](O)NC(=O)[C@@H]5[C@@H](O)[C@@H](C)CN5C(=O)[C@H]([C@H](O)CC(N)=O)NC(=O)[C@H]([C@H](O)[C@@H](O)c5ccc(O)c(OS(=O)(=O)O)c5)NC(=O)[C@@H]5C[C@@H](O)CN5C(=O)[C@H]([C@@H](C)O)NC4=O)cc3)no2)cc1		human children aged 6-11 years, plasma	intravenous, 3 mg/kg once daily, day 7, geometric mean	AUCtau	244 µg·h/mL
CC[C@H](C)[C@H](NC(=O)[C@H](C)NC(=O)[C@H](CCCCN)NC(=O)[C@H](CC(C)C)NC(=O)[C@H](C)NC(=O)[C@@H](NC(=O)[C@H](Cc1c[nH]cn1)NC(=O)[C@H](CC(C)C)NC(=O)[C@@H](NC(=O)[C@@H](NC(=O)[C@H](CCCCN)NC(=O)[C@H](CCCCN)NC(=O)[C@H](C)NC(=O)[C@H](CO)NC(=O)[C@H](CCCCN)NC(=O)[C@H](Cc1ccccc1)NC(=O)[C@@H](NC(=O)[C@H](CCCCN)NC(=O)[C@H](CC(C)C)NC(=O)[C@H](Cc1ccccc1)NC(=O)[C@H](CO)NC(=O)[C@H](CCCCN)NC(=O)[C@H](Cc1c[nH]c2ccccc12)NC(=O)[C@H](CCCCN)NC(C)=O)[C@@H](C)O)[C@@H](C)O)C(C)C)[C@@H](C)O)C(=O)N[C@@H](CO)C(=O)N[C@@H](CO)C(N)=O	RP-HPLC	Zorbax 300 SB-C8 column	65 °C	retention time	17.4 min
O=C(NCCS)c1cccc(C(=O)NCCS)c1		male Sprague-Dawley rat, plasma	intravenous, 1 mg/kg, 4.98 min	concentration	493 ng/mL
c1cc2ccc3cccc4ccc(c1)c2c34	HPLC-fluorescence	Wistar rat, male, testes	oral, 4 mg/kg, 24 h	tissue concentration	12.6 ± 3.3 ng/g
CS(=O)(=O)CCCn1c(Cn2c(=O)n(CC(F)(F)F)c3ccncc32)cc2cc(Cl)ccc21		RSV-infected infants	concentration not given, low dose cohorts	patients with low MCH	17%
O=c1[nH]c(=O)[nH]c(=O)[nH]1	LC-MS/MS	pregnant female rat, serum	oral, 1000 mg/kg/day, 10 days	serum concentration	16.7 µg/mL and 11.3 µg/mL and 10.8 µg/mL and 152 µg/mL and 31.1 µg/mL and 41.6 µg/mL
CCCCCCCCCCCCCCCC[N+](C)(C)CCCCCCCCCCCCCCCC	ultrafiltration	human serum		unbound fraction in blood	0.066
C[C@@H]1COCCN1c1cc([C@]2(O)C[C@H]3CC[C@@H](C2)O3)c2cnn(-c3cc[nH]n3)c2n1		NOD-SCID mouse, tumour-bearing	oral, 2 weeks, 3 days on, 4 off	MTD	30 mg/kg
CCCCCOc1ccc(-c2ccc(-c3ccc(C(=O)N[C@H]4C[C@@H](O)[C@@H](O)NC(=O)[C@@H]5[C@@H](O)[C@@H](C)CN5C(=O)[C@H]([C@@H](C)O)NC(=O)[C@H]([C@H](O)[C@@H](O)c5ccc(O)cc5)NC(=O)[C@@H]5C[C@@H](O)CN5C(=O)[C@H]([C@@H](C)O)NC4=O)cc3)cc2)cc1	population PK model	patients, typical weight sample D kg	intravenous	inter-compartmental clearance	2.37 L/h
NC(=O)c1nc(F)c[nH]c1=O	UV-Vis spectrophotometry	supercritical CO2	120 min, 328 K, 21 MPa, 768.74 kg/m^3	solubility	882 µg/mL
CO[C@H]1C[C@@H]2CC[C@@H](C)[C@@](O)(O2)C(=O)C(=O)N2CCCC[C@H]2C(=O)O[C@H]([C@H](C)C[C@@H]2CC[C@@H](OCCO)[C@H](OC)C2)CC(=O)[C@H](C)/C=C(\C)[C@@H](O)[C@@H](OC)C(=O)[C@H](C)C[C@H](C)/C=C/C=C/C=C/1C		human cancer patients, whole blood	oral, 5 mg once daily, added: paclitaxel	CL/F	13.3 L/h
CC[C@H](NC(=O)CCC(=O)O)C(=O)N[C@H](C(=O)N[C@@H](CC(C)C)C(=O)N[C@@H](CCC(N)=O)C(=O)Nc1ccc2c(C)cc(=O)oc2c1)C(C)(C)C	shake-flask HPLC		1 h, pH 7.2, 37 °C, 5% DMSO, 0.01% Triton X-100	solubility	6.21 ± 0.18 mM
CCNc1nc(Cl)nc(NCC)n1	LC-MS/MS	herbicide solution	2 h, 40 °C, added: 254 nm UV exposure	remaining amount	64.7 ± 11.2%
Cn1cc(C2=C(c3cn(C4CCN(Cc5ccccn5)CC4)c4ccccc34)C(=O)NC2=O)c2ccccc21		phase I cancer patients, plasma	oral, 250 mg once daily, cycle 1 day 22, geometric mean, added: erlotinib 150 mg daily	Cav,ss	275 nmol/L
O=c1[nH]c(Cc2ccccn2)nc2c1cnn2C1CCOCC1		healthy men, extensive metabolizers, plasma	oral, 200 mg single dose, tablet, geometric mean	Cmax	2950 nM
CCCCCCCCCCNCCN[C@@]1(C)C[C@H](O[C@H]2[C@H](Oc3c4cc5cc3Oc3ccc(cc3Cl)[C@@H](O)[C@@H](NC(=O)[C@@H](CC(C)C)NC)C(=O)N[C@@H](CC(N)=O)C(=O)N[C@H]5C(=O)N[C@H]3C(=O)N[C@H](C(=O)N[C@H](C(=O)O)c5cc(O)c(CNCP(=O)(O)O)c(O)c5-c5cc3ccc5O)[C@H](O)c3ccc(c(Cl)c3)O4)O[C@H](CO)[C@@H](O)[C@@H]2O)O[C@@H](C)[C@H]1O		perfused placental lobule tissue	25 µg/mL, 240 min	tissue concentration	11000 ± 1000 ng/g
Cc1cc(C(C#N)c2ccc(Cl)cc2)c(Cl)cc1NC(=O)c1cc(I)cc(I)c1O (stereo not drawn)	HPLC, non-compartmental	Corriedale lambs, parasitized, plasma	oral, 10 mg/kg, added: moxidectin 0.2 mg/kg oral	elimination half-life	18.6 days
O[C@H]1CCCN[C@@H]1CCCn1cnc2c(Cl)c(Cl)ccc21		healthy human volunteers, plasma	oral, 200 mg, day 1, multiple ascending dose	Vz/F	1340 L
CC(=O)N[C@H](CCCCNC(=O)C(C)F)C(=O)N[C@@H](CS)C(=O)N[C@@H](CS)C(=O)N[C@@H](CCC(=O)O)C(=O)N[C@@H](Cc1c[nH]cn1)C(=O)N[C@H](Cc1ccccc1)C(=O)N[C@@H](CCCNC(=N)N)C(=O)N[C@@H](Cc1c[nH]c2ccccc12)C(=O)N[C@@H](CS)C(=O)N[C@@H](CCCNC(=N)N)C(=O)N1CCC[C@H]1C(=O)N[C@H](C(N)=O)C(C)C (stereo partly drawn) [fluorine-18 labelled]		C57BL/6 mice, male, B16-F10 tumour, tumor	intravenous, 1 h	tissue uptake	1.8 ± 0.18 %ID/g
Cn1nccc1Nc1nc(NCC(F)(F)F)c2nc[nH]c2n1		NMRI mouse, female, uninfected, blood	intraperitoneal, 30 mg/kg, day 1, added: ABT pretreatment	Tmax	0.5 to 2 h
CC(C)[C@H](NC(=O)[C@H](Cc1c[nH]c2ccccc12)NC(=O)[C@@H](N)CCCNC(=N)N)C(=O)N[C@@H](Cc1c[nH]c2ccccc12)C(=O)NCC(=O)NCC(=O)NCC(=O)NCC(=O)N[C@@H](CCCCN)C(=O)N[C@@H](CCCCN)C(=O)NCC(=O)NCC(=O)NCC(=O)NCC(=O)N[C@@H](Cc1c[nH]c2ccccc12)C(=O)N[C@H](C(=O)N[C@@H](Cc1c[nH]c2ccccc12)C(=O)N[C@@H](CCC(=O)O)C(=O)O)C(C)C	circular dichroism	phosphate buffer	pH 6.5	Tm	51.8 ± 0.1 °C
CC1N=C(c2ccccc2F)c2cc(Nc3ccccc3F)ccc2NC1=O (stereo not drawn)	shake flask	PBS	24 h, pH 7.4	aqueous solubility	27 µM (≈ 10.2 µg/mL)
CC[C@H](C)[C@H](NC(=O)[C@H](CCCNC(=N)N)NC(=O)[C@H](CC(C)C)NC(=O)[C@@H](N)Cc1ccccc1)C(=O)N[C@@H](CCCNC(=N)N)C(=O)N1CCC[C@H]1C(=O)N[C@H](CCCCN)C(=O)O		rat plasma	37 °C	half-life	42 min

Excerpt of the above:
Compound	assay	system	conditions	measurement	result
CN[C@@](C)(C[18F])C(=O)O		SCID mouse U87 xenograft, heart	30 min, post injection	tissue uptake	4.5 ± 1.7 %ID/g
CCCCCOc1ccc(-c2cc(-c3ccc(C(=O)N[C@H]4C[C@@H](O)[C@@H](O)NC(=O)[C@@H]5[C@@H](O)[C@@H](C)CN5C(=O)[C@H]([C@H](O)CC(N)=O)NC(=O)[C@H]([C@H](O)[C@@H](O)c5ccc(O)c(OS(=O)(=O)O)c5)NC(=O)[C@@H]5C[C@@H](O)CN5C(=O)[C@H]([C@@H](C)O)NC4=O)cc3)no2)cc1		human children aged 6-11 years, plasma	intravenous, 3 mg/kg once daily, day 7, geometric mean	AUCtau	244 µg·h/mL
CC[C@H](C)[C@H](NC(=O)[C@H](C)NC(=O)[C@H](CCCCN)NC(=O)[C@H](CC(C)C)NC(=O)[C@H](C)NC(=O)[C@@H](NC(=O)[C@H](Cc1c[nH]cn1)NC(=O)[C@H](CC(C)C)NC(=O)[C@@H](NC(=O)[C@@H](NC(=O)[C@H](CCCCN)NC(=O)[C@H](CCCCN)NC(=O)[C@H](C)NC(=O)[C@H](CO)NC(=O)[C@H](CCCCN)NC(=O)[C@H](Cc1ccccc1)NC(=O)[C@@H](NC(=O)[C@H](CCCCN)NC(=O)[C@H](CC(C)C)NC(=O)[C@H](Cc1ccccc1)NC(=O)[C@H](CO)NC(=O)[C@H](CCCCN)NC(=O)[C@H](Cc1c[nH]c2ccccc12)NC(=O)[C@H](CCCCN)NC(C)=O)[C@@H](C)O)[C@@H](C)O)C(C)C)[C@@H](C)O)C(=O)N[C@@H](CO)C(=O)N[C@@H](CO)C(N)=O	RP-HPLC	Zorbax 300 SB-C8 column	65 °C	retention time	17.4 min
O=C(NCCS)c1cccc(C(=O)NCCS)c1		male Sprague-Dawley rat, plasma	intravenous, 1 mg/kg, 4.98 min	concentration	493 ng/mL
